Results pooled from the literature.
Compare with care: the assays were run in different laboratories.
Organism: Escherichia coli

SMILES | assay | system | setting | scale | MIC
CC1(C)CC[C@]2(C(=O)O)CC[C@]3(C)C(=CC[C@@H]4[C@@]5(C)CC[C@H](O)C(C)(C)[C@@H]5CC[C@]43C)[C@@H]2C1 | – | BL21 pET28a-KPC-2 | – | – | 512 µg/mL
CCCCCCC/C=C/C(=O)N1C(=O)/C(=C(\O)C2CCNCC2)C(=O)C1CC(C)C (stereo not drawn) | – | K12 ΔtolC | – | – | 6.25 µg/mL
CC[C@H](C)[C@H](NC(=O)[C@H](C)N)C(=O)N[C@@H](CO)C(=O)NCC(=O)N[C@@H](CO)C(=O)N[C@@H](CC(C)C)C(=O)N[C@H](C(=O)N[C@H](C(=O)N[C@@H](CC(C)C)C(=O)N[C@@H](Cc1ccccc1)C(=O)NCC(=O)N[C@@H](Cc1ccc(O)cc1)C(=O)N[C@@H](CCCNC(=N)N)C(=O)N[C@@H](CCCCN)C(=O)N[C@@H](CCCNC(=N)N)C(=O)N[C@@H](CCCCN)C(=O)N[C@@H](CCCNC(=N)N)C(=O)N[C@@H](CCCCN)C(N)=O)[C@@H](C)O)C(C)C | checkerboard | – | 24 h, 37 °C, alone, azithromycin plate | – | 32 µM
CC[C@H](C)[C@H](NC(=O)[C@H](CC(C)C)NC(=O)[C@H](CCCNC(=N)N)NC(=O)[C@@H](N)CCCNC(=N)N)C(=O)N[C@@H](CCCNC(=N)N)C(=O)N[C@H](C(=O)N[C@@H](CCCCN)C(=O)N[C@H](C(=O)NCC(=O)N1CCC[C@H]1C(=O)N[C@H](C(=O)N[C@H](C(=O)N[C@@H](Cc1ccc(O)cc1)C(=O)N[C@@H](CCCCN)C(=O)N[C@@H](Cc1ccc(O)cc1)C(=O)N[C@@H](Cc1ccccc1)C(=O)N[C@@H](CCCCN)C(=O)N[C@@H](CCCCN)C(=O)N[C@@H](CCC(N)=O)C(=O)N[C@@H](CC(C)C)C(=O)N[C@@H](CC(C)C)C(=O)N[C@@H](CCCCN)C(=O)N[C@@H](CCCCN)C(N)=O)[C@@H](C)CC)[C@@H](C)CC)[C@@H](C)O)[C@@H](C)O | broth microdilution | KCTC 1682, Mueller-Hinton broth | 24 h, 37 °C | – | 4 µM
CC(C)C[C@H](NC(=O)[C@H](Cc1c[nH]c2ccccc12)NC(=O)[C@H](CC(C)C)NC(=O)[C@@H](NC(=O)[C@H](CC(C)C)NC(=O)[C@H](CCCNC(=N)N)NC(=O)[C@@H](N)CCCNC(=N)N)[C@@H](C)O)C(=O)N[C@H](C(=O)N[C@@H](CC(C)C)C(=O)N[C@@H](CCCNC(=N)N)C(=O)N[C@@H](CCCNC(=N)N)C(N)=O)[C@@H](C)O | – | UB1005 | 24 h, 37 °C | – | 2 µM
C[C@@H](O)[C@H]1C(=O)N2C(C(=O)O)=C(S[C@@H]3CN[C@H](C(=O)N(C)C)C3)[C@H](C)[C@H]12 | – | DH5α cloned blaKPC-127 | – | – | ≤ 0.06 µg/mL
CC[C@H](C)CCCCC(=O)N[C@@H](CCN)C(=O)N[C@H](C(=O)N[C@@H](CCN)C(=O)N[C@H]1CCNC(=O)[C@H]([C@@H](C)O)NC(=O)[C@H](CCN)NC(=O)[C@H](CCN)NC(=O)[C@H](CC(C)C)NC(=O)[C@@H](Cc2ccccc2)NC(=O)[C@H](CCN)NC1=O)[C@@H](C)O | – | K12 | 24 h | – | < 1 µM
CC[C@H](C)[C@H](NC(=O)CNC(=O)[C@H](CC(=O)O)NC(=O)[C@H](CCCNC(=N)N)NC(=O)[C@@H](NC(=O)[C@H](CC(N)=O)NC(=O)[C@H](CCCNC(=N)N)NC(=O)CNC(=O)[C@@H](NC(=O)[C@H](CCCCN)NC(=O)[C@H](CCC(=O)O)NC(=O)[C@@H](NC(=O)[C@H](CCCCN)NC(=O)[C@H](CCCCN)NC(=O)[C@H](Cc1ccccc1)NC(=O)[C@@H](NC(=O)[C@H](CCCCN)NC(=O)[C@H](Cc1c[nH]c2ccccc12)NC(=O)[C@@H](N)CCCNC(=N)N)[C@@H](C)CC)[C@@H](C)CC)C(C)C)C(C)C)C(=O)N[C@H](C(=O)N[C@@H](CCCCN)C(=O)N[C@@H](C)C(N)=O)[C@@H](C)CC | – | K1 ATCC 700973, Mueller-Hinton broth | 16 h, 37 °C | growth inhibition over 99% | 16 µM
CC[C@H](C)[C@H](NC(=O)[C@H](CC(C)C)NC(=O)[C@H](CCCCN)NC(=O)[C@@H](NC(=O)[C@H](C)NC(=O)[C@H](CCC(=O)O)NC(=O)[C@H](Cc1c[nH]cn1)NC(=O)[C@@H](NC(=O)[C@H](CCCCN)NC(=O)[C@H](CCC(N)=O)NC(=O)[C@H](Cc1ccccc1)NC(=O)[C@@H](NC(=O)[C@H](CCCCN)NC(=O)[C@H](CCCCN)NC(=O)[C@H](CC(C)C)NC(=O)[C@H](C)N)C(C)C)[C@@H](C)CC)[C@@H](C)CC)C(N)=O | CLSI broth microdilution | ATCC 25922 | 18 h, 37 °C | – | 4 µM
CC[C@H](C)[C@H](NC(=O)CNC(=O)[C@H](CC(=O)O)NC(=O)[C@H](CCCNC(=N)N)NC(=O)[C@@H](NC(=O)[C@H](CC(N)=O)NC(=O)[C@H](CCCNC(=N)N)NC(=O)CNC(=O)[C@@H](NC(=O)[C@H](CCCCN)NC(=O)[C@H](CCCNC(=N)N)NC(=O)[C@@H](NC(=O)[C@H](CCCCN)NC(=O)[C@H](CCCCN)NC(=O)[C@H](Cc1ccccc1)NC(=O)[C@@H](NC(=O)[C@H](CCCCN)NC(=O)[C@H](Cc1c[nH]c2ccccc12)NC(=O)[C@@H](N)CCCNC(=N)N)[C@@H](C)CC)[C@@H](C)CC)C(C)C)C(C)C)C(=O)N[C@H](C(=O)N[C@@H](CCCCN)C(=O)N[C@@H](C)C(=O)NCC(=O)N1CCC[C@H]1C(=O)N[C@@H](C)C(=O)N[C@H](C(=O)N[C@@H](C)C(=O)N[C@H](C(=O)N[C@H](C(=O)NCC(=O)N[C@@H](CCC(N)=O)C(=O)N[C@@H](C)C(=O)N[C@@H](C)C(=O)N[C@H](C(=O)N[C@H](C(=O)N[C@H](C(=O)N[C@@H](CCCCN)C(N)=O)C(C)C)C(C)C)[C@@H](C)O)C(C)C)C(C)C)C(C)C)[C@@H](C)CC | – | K1 ATCC 700973, Mueller-Hinton broth | 16 h, 37 °C | growth inhibition over 99% | 2 µM
CC1(C)SC2C(NC(=O)C(NC(=O)C3=C(O)CNC3=O)c3ccccc3)C(=O)N2C1C(=O)O (stereo not drawn) | broth microdilution | ATCC 35218, low-level TEM-1 | added: clavulanic acid 6 µg/mL | – | > 200 µg/mL
CC[C@H](C)[C@H](NC(=O)[C@@H]1CCCN1C(=O)[C@H](CS)NC(=O)[C@H](CCCNC(=N)N)NC(=O)[C@H](CCCNC(=N)N)NC(=O)[C@H](CCCNC(=N)N)NC(=O)[C@@H]1CCCN1C(=O)[C@H](Cc1ccccc1)NC(=O)[C@H](CC(C)C)NC(=O)[C@H](CO)NC(=O)[C@H](CCC(N)=O)NC(=O)[C@H](CCC(=O)O)NC(=O)[C@H](Cc1c[nH]c2ccccc12)NC(=O)CNC(=O)[C@H](CCSC)NC(=O)[C@H](C)NC(=O)[C@H](CCCNC(=N)N)NC(=O)[C@H](CO)NC(=O)[C@H](C)NC(=O)[C@H](CCCCN)NC(=O)[C@H](CC(C)C)NC(=O)[C@H](CCCNC(=N)N)NC(=O)[C@H](CC(N)=O)NC(=O)[C@H](CS)NC(=O)[C@@H](N)CC(C)C)C(=O)N1CCC[C@H]1C(=O)N[C@@H](CCCCN)C(=O)N[C@H](C(=O)N[C@H](C(=O)N[C@@H](Cc1ccc(O)cc1)C(=O)N[C@@H](CCCCN)C(=O)N[C@@H](CC(C)C)C(=O)N[C@@H](CCCNC(=N)N)C(=O)O)[C@@H](C)O)[C@@H](C)O | broth microdilution | K88, Mueller-Hinton broth | 37 °C | – | 35.4 µM
CC[C@H](C)[C@H](N)C(=O)N[C@@H](CC(C)C)C(=O)NCC(=O)N[C@@H](CCC(=O)O)C(=O)N[C@H](C(=O)N[C@@H](Cc1c[nH]c2ccccc12)C(=O)N[C@@H](CCCCN)C(=O)NCC(=O)N[C@H](C(=O)N[C@@H](CCCCN)C(=O)N[C@@H](CC(=O)O)C(=O)N[C@H](C(=O)N[C@@H](CC(C)C)C(N)=O)[C@@H](C)CC)[C@@H](C)CC)[C@@H](C)CC | broth microdilution | ATCC 25922 | added: human serum 10% | – | > 100 µM
CC(C)C[C@@H](NC(=O)CNC(=O)[C@@H](CCCCN)NC(=O)[C@@H](CC(C)C)NC(=O)[C@@H](CCCCN)NC(=O)[C@@H](CCCNC(=N)N)NC(=O)[C@@H](CC(C)C)NC(=O)[C@@H](CC(C)C)NC(=O)[C@@H](CCCNC(=N)N)NC(=O)[C@H](N)CCCNC(=N)N)C(=O)N[C@H](CCCCN)C(=O)N[C@H](CCCCN)C(=O)N[C@H](Cc1ccc(O)cc1)C(=O)N[C@H](CC(C)C)C(=O)N[C@H](Cc1ccc(O)cc1)C(=O)N[C@H](Cc1ccccc1)C(=O)N[C@H](CCCCN)C(=O)N[C@H](CC(C)C)C(=O)N[C@H](CCC(N)=O)C(=O)N[C@H](CC(C)C)C(=O)N[C@H](CC(C)C)C(=O)N[C@H](CCCCN)C(=O)N[C@H](CCCCN)C(N)=O | broth microdilution | KCTC 1682, Mueller-Hinton broth | no added salt | – | 2 µM
CC(=O)OCC1=C(C(=O)O)N2C(=O)[C@@H](NC(=O)Cc3cccs3)[C@H]2SC1 | – | – | – | – | 62.5 µg/mL
CC[C@H](C)[C@H](NC(=O)CN)C(=O)NCC(=O)N[C@@H](CCCCN)C(=O)N[C@@H](Cc1ccccc1)C(=O)N[C@@H](CC(C)C)C(=O)N[C@@H](Cc1c[nH]cn1)C(=O)N[C@@H](CO)C(=O)N[C@@H](C)C(=O)N[C@@H](CCCCN)C(=O)N[C@@H](CCCCN)C(=O)N[C@@H](Cc1ccccc1)C(=O)NCC(=O)N[C@@H](CCCCN)C(=O)N[C@@H](C)C(=O)N[C@@H](Cc1ccccc1)C(=O)N[C@H](C(=O)NCC(=O)N[C@@H](CCC(=O)O)C(=O)N[C@H](C(=O)N[C@@H](CCSC)C(=O)N[C@@H](CC(N)=O)C(=O)N[C@@H](CO)C(N)=O)[C@@H](C)CC)C(C)C | broth dilution | K12 BW25113 | 18 h, 37 °C | – | 3.6 µM
CC1(C)SC2C(NC(=O)C(NC(=O)C3=C(O)C(Cc4ccc([N+](=O)[O-])cc4)NC3=O)c3ccccc3)C(=O)N2C1C(=O)O (stereo not drawn) | broth microdilution | Keio mutant JW0587-1 | 18 h, enterobactin-related gene | – | 50 µg/mL
CC[C@H](C)[C@H](NC(=O)[C@H](CC(C)C)NC(=O)[C@@H](NC(=O)[C@H](Cc1ccc(O)cc1)NC(=O)[C@H](CO)NC(=O)CNC(=O)[C@H](CCCNC(=N)N)NC(=O)[C@H](CCCNC(=N)N)NC(=O)[C@H](CCCNC(=N)N)NC(=O)[C@@H]1CCCN1C(=O)[C@H](CCCCN)NC(=O)[C@H](Cc1c[nH]c2ccccc12)NC(=O)[C@@H](NC(=O)[C@H](Cc1c[nH]c2ccccc12)NC(=O)[C@H](CCCCN)NC(=O)[C@H](CCCNC(=N)N)NC(=O)[C@H](CCCNC(=N)N)NC(=O)[C@@H]1CCCN1C(=O)[C@H](CO)NC(=O)[C@H](CCCNC(=N)N)NC(=O)[C@H](CO)NC(=O)[C@H](CCCNC(=N)N)NC(=O)[C@@H](N)CCCNC(=N)N)[C@@H](C)O)[C@@H](C)O)C(=O)N[C@@H](CO)C(=O)N[C@@H](CCC(N)=O)C(=O)NCC(=O)NCC(=O)N[C@@H](CC(N)=O)C(=O)O | – | ATCC 25922 | highest concentration 50 µM | – | 21.8 µM
CSCC[C@H](NC(=O)[C@H](CC(C)C)NC(=O)[C@H](CCCCN)NC(=O)[C@H](Cc1c[nH]c2ccccc12)NC(=O)[C@H](CC(N)=O)NC(=O)[C@H](CCCCN)NC(=O)CNC(=O)[C@H](CC(C)C)NC(=O)[C@H](CC(C)C)NC(=O)[C@H](CCCCN)NC(=O)[C@@H](N)CCCCN)C(=O)O | – | TG1 | – | – | > 25 µM
O=C(O)c1ccccn1 | – | NDM-1 producing | compound alone | – | > 2000 µM
COc1c(N2CC3CCCNC3C2)c(F)cc2c(=O)c(C(=O)OCc3cnc([N+](=O)[O-])s3)cn(C3CC3)c12 (stereo not drawn) | – | NR 51487, fluoroquinolone-resistant | – | – | > 97 µM

A few entries again:
SMILES | assay | system | setting | scale | MIC
CC[C@H](C)CCCCC(=O)N[C@@H](CCN)C(=O)N[C@H](C(=O)N[C@@H](CCN)C(=O)N[C@H]1CCNC(=O)[C@H]([C@@H](C)O)NC(=O)[C@H](CCN)NC(=O)[C@H](CCN)NC(=O)[C@H](CC(C)C)NC(=O)[C@@H](Cc2ccccc2)NC(=O)[C@H](CCN)NC1=O)[C@@H](C)O | – | K12 | 24 h | – | < 1 µM
